Measured values of several laboratories.
Lines come from different studies, so protocols differ. ± marks the error that the study gave.

Structure (SMILES)	test	system	setting	Tmax [h]
Cc1cc(C(C#N)c2ccc(Cl)cc2)c(Cl)cc1NC(=O)c1cc(I)cc(I)c1O (stereo not drawn)	HPLC, non-compartmental	Corriedale lambs, parasitized, plasma	subcutaneous, 5 mg/kg	38.9 ± 10.1
CC[C@@]1(O)C(=O)OCc2c1cc1n(c2=O)Cc2cc3c(CN(C)C)c(O)ccc3nc2-1	–	human, plasma	oral, 2.5 mg, multiple doses, patients	1.99
CCCCCOc1ccc(-c2cc(-c3ccc(C(=O)N[C@H]4C[C@@H](O)[C@@H](O)NC(=O)[C@@H]5[C@@H](O)[C@@H](C)CN5C(=O)[C@H]([C@H](O)CC(N)=O)NC(=O)[C@H]([C@H](O)[C@@H](O)c5ccc(O)c(OS(=O)(=O)O)c5)NC(=O)[C@@H]5C[C@@H](O)CN5C(=O)[C@H]([C@@H](C)O)NC4=O)cc3)no2)cc1	–	young infants under 1000 g, plasma	intravenous infusion, 10 mg/kg/day, day 4, mean, 1 h infusion, repeat dosing	1.1
O[C@H]1CCCN[C@@H]1CCCn1cnc2c(Cl)c(Cl)ccc21	–	human, plasma	oral, 500 mg, single dose, healthy volunteers	3.01
O=c1[nH]c(Cc2ccccn2)nc2c1cnn2C1CCOCC1	–	healthy men, extensive metabolizers, plasma	oral, 5 mg single dose, tablet, median	0.63
c1cc([C@H]2CC[C@]3(CC2)OO[C@]2(O3)C3CC4CC(C3)CC2C4)ccc1OCCN1CCOCC1	–	human, plasma	oral, 800 mg, single dose, fasted	3
CC[C@H](C)[C@H](NC(=O)[C@@H](N)CCCNC(=N)N)C(=O)N[C@H](C(=O)N1CCC[C@H]1C(=O)N[C@@H](C)C(N)=O)C(C)C	–	healthy volunteers, both sexes, plasma	intravenous infusion, 1.5 mg/kg daily, day 7, multiple ascending dose	0.075 ± 0.0167
CNC(=O)c1ccc(-c2cnn3ccc(C(=O)N(C)c4ccc(Cl)c(C(=O)OC)c4)cc23)cc1	–	beagle dogs, both sexes, plasma	oral, 15 mg/kg/day, day 14	0.917
C#C[C@]1(O)CC[C@H]2[C@@H]3CCC4=CC(=O)CC[C@@H]4[C@H]3CC[C@@]21CC	–	HIV-positive women, control arm, serum	oral, dose not given, steady state, median	1.5

Excerpt of the above:
Structure (SMILES)	test	system	setting	Tmax [h]
CC[C@@]1(O)C(=O)OCc2c1cc1n(c2=O)Cc2cc3c(CN(C)C)c(O)ccc3nc2-1	–	human, plasma	oral, 2.5 mg, multiple doses, patients	1.99
